# Measurements gathered from unrelated publications.
# Each line is one published result; not all experiments were run side by side.
# Target: Amine oxidase [flavin-containing] B (MAOB, Homo sapiens, UniProt P27338)
# UniProt P27338, sequence (whole entry, looked up): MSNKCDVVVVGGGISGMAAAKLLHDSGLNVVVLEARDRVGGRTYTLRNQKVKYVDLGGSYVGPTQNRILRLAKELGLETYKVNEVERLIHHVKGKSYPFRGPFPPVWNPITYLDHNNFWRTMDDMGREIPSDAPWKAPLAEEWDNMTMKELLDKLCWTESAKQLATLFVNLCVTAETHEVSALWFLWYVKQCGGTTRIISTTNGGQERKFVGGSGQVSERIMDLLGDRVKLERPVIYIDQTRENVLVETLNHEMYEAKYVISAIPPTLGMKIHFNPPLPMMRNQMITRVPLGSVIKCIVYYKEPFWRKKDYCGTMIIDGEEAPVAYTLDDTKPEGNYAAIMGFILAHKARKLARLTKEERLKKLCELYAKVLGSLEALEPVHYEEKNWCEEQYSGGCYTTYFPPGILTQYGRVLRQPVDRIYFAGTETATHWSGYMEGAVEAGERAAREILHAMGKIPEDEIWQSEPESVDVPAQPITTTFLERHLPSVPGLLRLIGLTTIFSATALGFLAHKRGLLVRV
# Mode: inhibitor
Structure (SMILES),observed,technique,tested at,notes,quantity,result
O=C1Nc2ccc(F)cc2/C1=N/N=C/c1cccc(OCc2ccccc2)c1,enzyme activity,,10 µM,,remaining activity,29.7%
Cc1cc(O)c2c(c1)C(=O)c1cc(O)c(O)c(O)c1C2=O,,Lineweaver-Burk secondary plot,,uncompetitive component,Kiu,4.46 µM
C#CCSc1nc(Sc2nnnn2-c2ccccc2)c2nnn(Cc3ccccc3Cl)c2n1,enzyme activity,luciferase,1 µM,,inhibition,< 10%
O=C(/C=C/c1ccc2c(c1)OCO2)c1cccs1,enzyme activity,fluorescence,1 µM,,inhibition,56.3%
O=C1Nc2ccc(Cl)cc2/C1=N/N=C/c1cccc(OCc2ccccc2)c1,enzyme activity,,10 µM,,remaining activity,40.6%
O=C(/C=C/c1ccc2c(c1)OCO2)c1ccc(Br)s1,enzyme activity,fluorescence,1 µM,,inhibition,77.5%
Cc1ccc(-c2nc(SCc3cn(CC(=O)NC(=O)Nc4ccccn4)nn3)nc(Nc3cccc(C(F)(F)F)c3)c2C#N)cc1,enzyme activity,luciferase,100 µM,,inhibition,< 5%
Cc1ccc(C(=O)/C=C/c2ccc3c(c2)OCCO3)o1,enzyme activity,fluorescence,1 µM,,inhibition,47.8%
O=C1Nc2ccc(Cl)cc2/C1=N/N=C/c1ccc(OCc2cccc(F)c2)cc1,enzyme activity,,10 µM,,remaining activity,63.6%

# Repeated from above:
Structure (SMILES),observed,technique,tested at,notes,quantity,result
Cc1ccc(C(=O)/C=C/c2ccc3c(c2)OCCO3)o1,enzyme activity,fluorescence,1 µM,,inhibition,47.8%
